# Published values collected from several papers.
# Every numbered part comes from another study and shows a few of its results, in no order. Substitutions count along the parent as printed.

# Block 1
# Target: CREBL2, bZIP domain (human)
# Method: DHFR protein complementation
# Sample: yeast
# Notes: single substitutions, most at no-binding floor
# Reference: wild-type JUN-FOS pair
# Direction: higher = stronger binding
# Parent: JUN, bZIP domain (human); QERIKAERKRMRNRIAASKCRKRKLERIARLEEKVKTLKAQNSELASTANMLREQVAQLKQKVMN; partner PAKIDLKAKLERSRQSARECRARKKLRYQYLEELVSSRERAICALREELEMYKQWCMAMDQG
Variant,binding fitness [natural log]
M51N,-1.23
V35H,-1.27
K34L,-1.22
L31E,-1.56
R53K,-1.56
S43Q,-1.25
T37E,-1.48
K36Q,-1.29
K34R,-1.29
R30Y,-1.33
Q55C,-1.39
E44R,-1.43

# Block 2
# Target: CCNB1, cyclin fold, Cln2 fusion (human)
# Method: yeast growth competition, sequencing
# Sample: yeast
# Notes: weak parent motif
# Reference: not given
# Direction: higher = stronger binding
# Parent: CDKN1B docking peptide (human); PSACRNLFGPVDH
Variant,normalised enrichment score
P10T,0.756
F8R,0.666
S2C,0.347
P1G,0.258
C4E,0.306
R5E,0.646
A3I,2.22
A3Q,0.452
A3D,-0.0549
H13Q,0.316

# Block 3
# Target: Histone acetyltransferase KAT6A, both winged helices, GST fusion (KAT6A, Homo sapiens, UniProt Q92794, residues 1-181)
# Method: protein binding microarray
# Form: double-stranded DNA, one strand shown
# Sample: in vitro
# Concentration: not given
# Notes: 8-mer, flanks averaged, mean of 2 arrays, mostly near background
# Reference: not given
# Direction: higher = stronger binding
# Residues (chain): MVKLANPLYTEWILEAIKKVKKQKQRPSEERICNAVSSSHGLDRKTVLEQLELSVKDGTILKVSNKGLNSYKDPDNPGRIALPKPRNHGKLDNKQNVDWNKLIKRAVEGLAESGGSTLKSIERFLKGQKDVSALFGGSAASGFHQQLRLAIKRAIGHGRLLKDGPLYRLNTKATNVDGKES
Oligonucleotide,E-score
CGGAAACG,0.295
AAGAAAAC,-0.0988
GTAGGTTA,-0.00483
GATGGAAA,-0.0184
GACATTGC,0.00419
ACTGACCC,-0.122
GAACACAC,0.0808
AATAGGGG,-0.25

# Mixed results
Molecule,target,test,test system,setting,scale,quantity,result
"PhoQ, residues 284 288 289 292 302 303 NSMLDC","PhoP, residues 12 14 15 18 19 LWHCS (Escherichia coli, UniProt P23836)","Sort-seq, item: YFP reporter",E. coli,"PhoQ-PhoP variant library, together with: 10 µM Mg2+","reference: high Mg2+ state, higher = stronger signaling",fold induction,9.06
